Measurements gathered from unrelated publications.
Parts stem from different laboratories: compare values within a part only. Changes are numbered by the printed parent chain.

Set 1
Target: RNA binding protein fox-1 homolog 2, RRM domain, GST-SBP tag (RBFOX2, Homo sapiens, UniProt O43251-10, residues 100-194)
Method: RNA Bind-n-Seq
Form: RNA
Sample: in vitro
Tested at: 365 nM
Notes: natural RNA segment, single round, ends assumed
Baseline: no-protein control
Direction: higher = stronger binding
Residues (chain): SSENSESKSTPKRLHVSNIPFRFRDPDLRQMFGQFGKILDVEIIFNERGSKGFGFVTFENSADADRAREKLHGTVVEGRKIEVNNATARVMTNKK
Oligonucleotide	RBNS enrichment (R)
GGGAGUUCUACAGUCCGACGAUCAACAGUAAUCAAUCUAUCACUGUUGAAGUCCUGGUUUUCUCAACCAAAUUUUAAGUCUUUCCCAGGUAUGUCAGUCGAGUUGCCAUGAAUCCUCACCUGUAGGAGUUUCUUGGAAUUCUCGGGUGCCAA	0.332
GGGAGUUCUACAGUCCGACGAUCAUUUUUUUCUAACCUUUCAAAAGUUUGAUUCAACCGUCUUACCUUGUAGUGUUAAGAUUCCAUACAGAGAGCCCUGUUAUGCAUACCAGUACUACAAAAUAAAGGGGAAAUGGAAUUCUCGGGUGCCAA	0.388
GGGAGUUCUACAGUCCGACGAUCGUGGUUCUAUUCUGAGCACCCCUGUUGCCUCUGACGACCCCCCCCCCACCAAAGGGAAGCAGAGAAGCCCCUGGCCAUGCACAUUGAGUAUGAUGAGCAAAAGGCCAGAAUGGAAUUCUCGGGUGCCAA	0.256
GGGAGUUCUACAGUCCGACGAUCCACAUAUCAUGUGCUUAGUUUGUUUAUUUUUCUCCAUCUCCCCUUGGCUUCCUAGAGUUUGGACAUAUUCCAGGCUAAAUGCUUUUACUCAAGACUACAGAAAGGUUUGAUGGAAUUCUCGGGUGCCAA	0.347
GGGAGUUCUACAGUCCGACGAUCCCCAGGUCCAGGAAAUCCAAUGUUGGUGAAGGCAGCCACUCUCUUGCUUGUCCCCAAAUCACCUAACCCUCAUCCAGGGCUAUUUUGGUGGGCAGGGACUGCCUCCUCCCUGGAAUUCUCGGGUGCCAA	0.291
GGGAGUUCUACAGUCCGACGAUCCAGUUUUUAUAGUUUUCCACAACCAAGCCACCCUUCACAGAUAAAAUAUGAUGCUGGCAUGGCAAUCAGACCAAAGCACUGUCCCCAAUUGUUGUCUUAACUAUGACUAGUGGAAUUCUCGGGUGCCAA	0.397
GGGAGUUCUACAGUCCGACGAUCAGAAAAAGGUCUAUUCUUCAGCAGAUCACUGUGGCCCCUCUUGGAGCUGGGUGUUUUCAAAUUUUCUUGAAAAGUGAGUUGUGUCACAGAAUGUGGAUAGUGAGAUUUGCUGGAAUUCUCGGGUGCCAA	1.51
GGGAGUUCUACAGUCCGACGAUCUCUUUGCUGUCAAAAGCUACAUUGCACCCACAUGUCUGGAGUUCACACCACAAAUCUGCAGUUCAUUCUGUUUAUCCCAGGCAUUAAAUUCCUAAUUUCUCUAGAUAUUUUGGAAUUCUCGGGUGCCAA	0.33
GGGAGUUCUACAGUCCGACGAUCAAGACAGGAUGCAGACAACGCUCAUGGGUUUUAACUUAUUUUUCUUUAAUAAAAUACCUCCUCCUCCUUUUGAGGUCUUUUAUUGCAGAGCUCACACCUUCAGCAGCCAGUGGAAUUCUCGGGUGCCAA	0.432
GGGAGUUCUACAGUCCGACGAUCUGCCACAGACAGCACAGCCCUUGCCCAGAAGCAGCUGAACAAUUCCUAACCCAUUUCAUCUCGGUUCUGUAUGGGUUUUUCCCGUGCAUGGAAGGGAGGCAGCUCAGGGAUGGAAUUCUCGGGUGCCAA	3.71
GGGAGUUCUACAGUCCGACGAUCGCAUAAACACUGUGCAGUUUUCCUGCUUGCCAGCCUGUGUGCCAUCUGUUCUCACAGCCUCUGAGAUGUCUCAGGUGAGAGCCAUGGGGUGGAACCAUAAAGUCCCCAUCUGGAAUUCUCGGGUGCCAA	0.271
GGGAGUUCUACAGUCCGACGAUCCACACAGAGGGGAACCGAUUUUUUUUAUCCAAUGUGAAUUAUAAAUGAGAUAAUCCACAGUUAUUCAUUGUGGAGUUGUUGAGACUAUGAAAGACUCAUUGUCUUUGUAUUGGAAUUCUCGGGUGCCAA	0.512

Set 2
Target: MAFG, bZIP domain (human)
Method: DHFR protein complementation
Sample: yeast
Notes: single substitutions, most at no-binding floor
Baseline: wild-type JUN-FOS pair
Direction: higher = stronger binding
Parent: JUN, bZIP domain (human); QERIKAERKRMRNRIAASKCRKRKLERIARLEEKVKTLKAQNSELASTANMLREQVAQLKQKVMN; partner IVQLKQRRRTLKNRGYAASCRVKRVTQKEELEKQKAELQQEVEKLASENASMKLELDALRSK
Substitution	binding fitness [natural log]
K36C	-1.5
E44G	-1.48
T48R	-1.4
N42M	-1.35
L31P	-1.49
E54W	-1.49
T37S	-1.29
I28T	-1.45
A29P	-1.52
L31F	-1.55
R53I	-1.54
S43R	-1.27
A40S	-1.49
R53A	-1.49
E44F	-1.45
L52K	-1.36
L31S	-1.49
A40G	-1.4
S47H	-1.29
R30W	-1.53
A49W	-1.44
V35F	-1.59
N42A	-1.19
Q41P	-1.47

Set 3
Target: Prothrombin, mature alpha-thrombin (F2, Homo sapiens, UniProt P00734)
Method: aptamer microarray, sandwich
Form: DNA with 2'F-ANA
Sample: in vitro
Tested at: 200 nM
Notes: whole 15-mer aptamer, many near background
With: Cy3 exosite-II aptamer, 400 nM
Direction: higher = stronger binding
Oligonucleotide: GGTTGGTGTGGTTGG
Modification	mean fluorescence intensity [a.u.]
2'F-ANA at 1 2 4 5 9 10 15	44.2
2'F-ANA at 2 3 4 6 9 10 11 12 13	188
2'F-ANA at 1 2 3 5 6 7 12 14 15	65.5
2'F-ANA at 4 6 7 8 10 11 13 14	58.3
2'F-ANA at 1 2 4 7 9 10 11 12	56.8
2'F-ANA at 3 4 7 11 14 15	478
2'F-ANA at 2 3 8 9 10 11 14 15	266
2'F-ANA at 1 3 4 5 7 8 11 13 14 15	48.4
2'F-ANA at 1 2 3 7 8 10 12 14 15	54.6
2'F-ANA at 2 6 14 15	117
2'F-ANA at 1 2 3 5 7 8 12 13 15	96.9
2'F-ANA at 2 4 8 10 11	83.1
2'F-ANA at 3 5 7 8 9 11 12	367
2'F-ANA at 7 8 9 14	226
2'F-ANA at 1 3 4 5 6 7 10 14	48.4
2'F-ANA at 1 2 6 8 9 10 11 13 14 15	94.7
2'F-ANA at 1 2 4 5 6 8 13 14	48.7
2'F-ANA at 3 5 8 14 15	76.5
2'F-ANA at 5 6 7 9 10 13 15	49.1
2'F-ANA at 1 2 4 10 11 12 15	57.7
2'F-ANA at 1 2 3 7 8 9 10 12 14	60.2
2'F-ANA at 1 4 5 6 9 11 13 14	51.5
2'F-ANA at 2 8 9 10 11 12 14	80
2'F-ANA at 1 3 6 7 8 9 13	249
2'F-ANA at 1 6 7 8 9 11 12 13 15	222

Set 4
Target: RING finger protein unkempt homolog, zinc fingers 1-6, GST-SBP tag (UNK, Homo sapiens, UniProt Q9C0B0, residues 30-357)
Chain of UniProt Q9C0B0 (30-357, looked up): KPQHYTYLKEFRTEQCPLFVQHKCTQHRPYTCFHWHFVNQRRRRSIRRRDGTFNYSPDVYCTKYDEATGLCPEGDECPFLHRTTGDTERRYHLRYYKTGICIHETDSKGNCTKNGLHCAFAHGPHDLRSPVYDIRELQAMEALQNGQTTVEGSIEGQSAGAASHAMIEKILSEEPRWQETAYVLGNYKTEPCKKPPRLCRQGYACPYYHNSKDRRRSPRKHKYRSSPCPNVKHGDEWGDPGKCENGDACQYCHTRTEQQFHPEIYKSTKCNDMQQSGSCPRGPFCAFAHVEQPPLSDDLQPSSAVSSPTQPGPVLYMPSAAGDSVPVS
Method: RNA Bind-n-Seq
Form: RNA
Sample: in vitro
Tested at: not given
Notes: RNA with constant flanks, human-mouse chimeric sites, ends assumed
Baseline: input RNA pool
Direction: higher = stronger binding
Oligonucleotide	bound/input enrichment
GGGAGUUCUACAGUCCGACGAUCUUAAUCCCCUUUACUGCUCCCCCACUUCUCAUGGUAAUAACAAAGUCUUAUAUCCCCGUCCUAGCUUUUACUCAGAUGGCUUAUGGAGCCGGUUUCCUAGCUUUCUUGGGUGGGAUCAGACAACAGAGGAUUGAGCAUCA	0.756 ratio
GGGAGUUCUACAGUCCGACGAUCCAGGGCAUUAUUUCUCGUGCUGUUAGACACCUGUUCAAGAGUAUUGAUGAGAAAAAGACCUCAGCGAUUAAAAACGGGCUGCCCCCUCCAGAUUUUAAAGUGAAUGCCCAGUUCCUAGAGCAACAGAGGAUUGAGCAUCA	0.147 ratio
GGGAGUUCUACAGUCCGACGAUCACCAUUUCUGAAUACACGGCUUUGUGUGUAGUUCACUUACGGUAUUAAAUUAUUAUUCUGCUUAGCUUAUAAUAAGGAUAAUUGCAUUUAAAGAGGUUACUGAAUGUUACUCUGAAACUUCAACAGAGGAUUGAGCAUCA	0.386 ratio
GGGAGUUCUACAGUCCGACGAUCAGUACUGACUCAGGCGGAUUUUGCAACACCAAGCUCAAGUAGCAAUUAUCUUAGUCACAGUAGGGUAGUUUUGGGGCUCUGUGGCCAGGGUUUUAUUCACAUGCAGGUUUGGAAAAUGUACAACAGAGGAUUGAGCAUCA	2.7 ratio
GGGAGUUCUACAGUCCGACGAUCAAAGAACCUCUCUCUGAUGAAGAUGAGGAAGACAAUGAUGAUGUUGAACCCAUUUCUGAAUUUCGAUUUGUGCCCAGUGAUAAGUCAGCGUUGGAGGCGAUGUUCACUGCAAUGUGCGAGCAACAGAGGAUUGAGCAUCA	0.237 ratio
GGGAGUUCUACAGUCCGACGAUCCAGCGCCGAGGCCGCGGGUGCCCGCCGGGCCUCCCCAGCAGCAGCCAUGGGCAUCAAAUUUUUAGAAGUUAUCAAACCAUUCUGUGCAGUUCUACCAGAAAUUCAGAAACCGGAAAGGAACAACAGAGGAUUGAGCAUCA	1.11 ratio
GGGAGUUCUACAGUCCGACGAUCGGUGGGGUGGUCAUUGCCGUUUGAGCUGCUGAUUUUCAUGAGUCGCCUUCAAAACUCUCGCAUAGGGUUGACAAUGUGGGGGGGUGGGGGAUCCAGCUAUUUUUUUUAUUUUCAAGUCCACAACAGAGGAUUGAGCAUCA	2.93 ratio
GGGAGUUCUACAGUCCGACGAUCAUGGAGAAGGAUUCUCUGCCCCGCUUUGUGCGCUCUGAAUUUUAUAAGGAGCUAAUCAAGUAGUCAUCUGGUCAGGCUAUGAAAUCAUCCUGUGAGUGUUGAGUUACAUCCUUUGUAGCACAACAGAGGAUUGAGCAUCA	0.252 ratio
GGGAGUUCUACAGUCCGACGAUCUCUUUAAAAAAAAAAUUACCUUUUCUGCAUAUUAUAGCCCUCCCAUAGGUCCAGGUUCAAGCUCAAAGAGCAAAGGCUUUGCACGGAGCUCAAACAUCUGAUGAAGAAAGAUUUCUGAGACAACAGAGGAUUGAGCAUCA	3.02 ratio
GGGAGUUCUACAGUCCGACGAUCAUAGAUGAAAUUGAUGUAGAUCAGGAAGGAAUUGCUGAAAUGAUGCUGGAUGAAAAUGCUAUUGCUCAGGUCCCACGCCCUGGCACAUCUUUGAAGCUCCCUGGCACUAACCAAACAGGACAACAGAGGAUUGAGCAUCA	0.505 ratio
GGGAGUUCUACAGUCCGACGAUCCACAGAGCAGCACCUACCCCCUCCUCCUUUCCACACCUGCAAACCCUUUUGCCUGGGCUGAAUAUUUAGUGUAAUUACAUCUCAGCUUUGAGGGCUCCUGUGGCAAAUUCCCGGAUUAAACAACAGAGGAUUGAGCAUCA	0.636 ratio

Repeated from above (set 3):
Modification	mean fluorescence intensity [a.u.]
2'F-ANA at 2 4 8 10 11	83.1
2'F-ANA at 3 5 7 8 9 11 12	367
2'F-ANA at 7 8 9 14	226
2'F-ANA at 1 3 4 5 6 7 10 14	48.4
2'F-ANA at 1 2 6 8 9 10 11 13 14 15	94.7
2'F-ANA at 1 2 4 5 6 8 13 14	48.7
2'F-ANA at 3 5 8 14 15	76.5
2'F-ANA at 5 6 7 9 10 13 15	49.1
2'F-ANA at 1 2 4 10 11 12 15	57.7
2'F-ANA at 1 2 3 7 8 9 10 12 14	60.2
2'F-ANA at 1 4 5 6 9 11 13 14	51.5
